Literature values that unrelated publications cite.
Each numbered part shows a few of the values that one paper quotes.
UniProt P54829, sequence (whole entry, looked up): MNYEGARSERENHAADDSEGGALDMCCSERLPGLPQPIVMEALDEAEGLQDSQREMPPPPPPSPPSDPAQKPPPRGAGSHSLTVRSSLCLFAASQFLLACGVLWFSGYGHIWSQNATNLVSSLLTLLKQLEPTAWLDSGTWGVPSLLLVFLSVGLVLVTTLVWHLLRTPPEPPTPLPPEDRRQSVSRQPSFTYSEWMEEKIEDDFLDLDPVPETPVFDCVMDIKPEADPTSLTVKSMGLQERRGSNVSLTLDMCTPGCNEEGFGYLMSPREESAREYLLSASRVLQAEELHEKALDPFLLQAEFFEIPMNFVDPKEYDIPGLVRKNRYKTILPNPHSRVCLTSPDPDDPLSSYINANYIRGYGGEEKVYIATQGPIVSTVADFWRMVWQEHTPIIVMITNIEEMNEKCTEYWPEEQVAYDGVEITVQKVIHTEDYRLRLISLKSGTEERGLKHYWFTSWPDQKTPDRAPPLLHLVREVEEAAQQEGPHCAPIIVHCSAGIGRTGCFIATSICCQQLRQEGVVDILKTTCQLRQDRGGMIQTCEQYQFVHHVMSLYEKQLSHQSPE
UniProt O75469, sequence (whole entry, looked up): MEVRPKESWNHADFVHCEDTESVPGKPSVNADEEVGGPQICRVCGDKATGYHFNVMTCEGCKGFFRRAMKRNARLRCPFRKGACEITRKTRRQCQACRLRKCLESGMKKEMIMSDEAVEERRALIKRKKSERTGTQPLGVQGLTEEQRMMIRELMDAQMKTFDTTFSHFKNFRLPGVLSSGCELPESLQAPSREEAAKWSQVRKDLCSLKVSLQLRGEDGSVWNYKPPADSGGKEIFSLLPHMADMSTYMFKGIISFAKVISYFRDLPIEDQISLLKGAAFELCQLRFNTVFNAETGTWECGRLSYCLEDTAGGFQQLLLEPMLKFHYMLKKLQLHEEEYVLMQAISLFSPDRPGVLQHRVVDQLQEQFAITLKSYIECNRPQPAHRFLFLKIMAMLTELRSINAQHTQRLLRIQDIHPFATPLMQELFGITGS
UniProt P41595, sequence (whole entry, looked up): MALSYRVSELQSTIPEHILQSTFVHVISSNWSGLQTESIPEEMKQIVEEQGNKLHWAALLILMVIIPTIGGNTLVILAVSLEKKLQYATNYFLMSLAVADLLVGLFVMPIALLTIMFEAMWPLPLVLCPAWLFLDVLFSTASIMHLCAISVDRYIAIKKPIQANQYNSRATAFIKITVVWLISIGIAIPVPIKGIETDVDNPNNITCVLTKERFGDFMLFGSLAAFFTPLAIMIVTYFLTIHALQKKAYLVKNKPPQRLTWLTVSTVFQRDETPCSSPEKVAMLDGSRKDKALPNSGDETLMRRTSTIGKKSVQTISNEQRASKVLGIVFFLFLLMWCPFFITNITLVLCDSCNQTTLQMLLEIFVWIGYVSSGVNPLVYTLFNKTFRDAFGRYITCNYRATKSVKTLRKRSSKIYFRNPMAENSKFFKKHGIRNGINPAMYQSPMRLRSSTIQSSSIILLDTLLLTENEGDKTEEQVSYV

Sample 1
Target: HLA class I histocompatibility antigen, A alpha chain, allele A*26:03 (Homo sapiens, UniProt P04439)
Observed: peptide-MHC binding
Molecule type: peptide
Molecule | IC50 [µM]
EELKSLFNTV | > 20
LFNTVAVLY | 20
YHRPLTGYM | > 20
YHLGGIEGL | > 20
RTMPLSRFT | > 20
RVFDKADGK | > 20
LFNTIATLY | > 20
GFPSLESSF | > 20
KLYVNGKAY | > 20
LEYGANYFL | > 20
TQRKKTLGF | 0.068
EINAFVAGM | 0.023
ASFKAGKLR | > 20
AVVEKWLGM | 0.056
DFGYATMAK | > 20
KRFYQTVGF | > 20
VFMDNAFKK | > 20
WLSVIAFGK | > 20
PTIPEQKCM | > 20
ALFHKVQSY | > 20
YECTSRHFT | > 20
REVFDYLLP | > 20
RQADILRQF | > 20
EELRSLYNTV | > 20
TVGYMYIMK | > 20

Further values, each from its own experiment
Structure (SMILES) | target or system | test | test system | conditions | scale | quantity | result
COc1ccc(C[C@@H](C)[C@@H](C)Cc2ccc(OC)c(OC)c2)cc1OC | – | – | rabbit | intravenous | – | LD50 | 3200 mg/kg
CC(=O)N(N(CCCl)S(C)(=O)=O)S(C)(=O)=O | – | – | mouse, L1210 leukemia | single dose | – | lethal toxic dose | ≥ 60 mg/kg
C[Si]1(C)O[Si](C)(C)O[Si](C)(C)O[Si](C)(C)O[Si](C)(C)O1 | Oncorhynchus mykiss | – | – | concentration not given | – | bioconcentration factor | 3500 L/kg wet weight
O=C(O)C(F)(F)C(F)(F)C(F)(F)C(F)(F)C(F)(F)C(F)(F)C(F)(F)C(F)(F)C(F)(F)C(F)(F)F | – | – | human, young female | – | – | renal clearance | 0.045 mL/day/kg
CCCCCCCCCCCCCC(=O)O[C@@H]1[C@@H](C)[C@@]2(O)[C@@H](C=C(CO)C[C@]3(O)C(=O)C(C)=C[C@@H]23)[C@@H]2C(C)(C)[C@]12OC(C)=O | phorbol ester receptor | radioligand binding | – | – | – | IC50 | 0.00079 µM
C[C@]12CC[C@@H]3c4ccc(O)cc4CC[C@H]3[C@@H]1CC[C@@H]2O | – | – | Danio rerio embryos | chorion present vs absent | – | uptake | no effect
COc1cc(/C=C/c2ccc(OC)cc2OC)cc(OC)c1 | CYP1A2 human | enzyme activity, inhibitor | – | – | – | IC50 | 3.1 µM
O=C(O)C(F)(F)C(F)(F)C(F)(F)C(F)(F)C(F)(F)C(F)(F)C(F)(F)F | – | – | human | mean | – | renal clearance | 0.044 mL/day/kg
O=C(O)c1c(Cl)c(Cl)c(Cl)c(Cl)c1-c1c2cc(Br)c(=O)c(Br)c-2oc2c(Br)c(O)c(Br)cc12 | Escherichia coli MraY | enzyme activity, inhibitor | – | – | – | IC50 | 32 µM
CCCCCCCCCCCCCCCCCCOCC(COP(=O)([O-])OCC[N+](C)(C)C)OC (stereo not drawn) | phosphoinositide-specific phospholipase C | – | – | – | – | IC50 | 10 µM
CC(=O)N(C)[C@H]1CCN(C(=O)c2cnc3c(c2)C[C@](C)(c2ccc(F)cc2)N3)C1 | – | – | Wistar Han rats, male | 50 mg/kg/day, NOAEL dose | – | Cmax | 39.9 µM
C/C=C1/CN2CC[C@]34C(=C(C(=O)OC)[C@H]1C[C@H]23)Nc1ccc(Br)cc14 | kappa opioid receptor | adenylyl cyclase inhibition | – | – | – | IC50 | 0.0039 µM
C=C[C@@H]1C[C@]1(NC(=O)[C@@H]1C[C@@H]2CN1C(=O)[C@H](C(C)(C)C)NC(=O)O[C@@H]1C[C@H]1CCCCCc1nc3ccc(OC)cc3nc1O2)C(=O)NS(=O)(=O)C1CC1 | human CYP3A4 | reversible inhibitor | human liver microsomes | with: midazolam | – | IC50 | 73 µM
COc1ccc2c(c1)Oc1cc(OP(=O)(O)O)ccc1C21OC(=O)c2ccccc21 (stereo not drawn) | PTPN5 (Homo sapiens, UniProt P54829) | substrate, fluorescence phosphatase | – | – | – | Km | 50 µM
CCCCC(=O)n1cc2c3c(cccc31)C1=C[C@@H](C(=O)N(CC)CC)CN(C)[C@@H]1C2 | – | head-twitch response, agonist | C57BL/6J mice male | literature value | – | ED50 | 373 nmol/kg
C[S+]([O-])CCCCN=C=S (stereo not drawn) | NR1I2 (Homo sapiens, UniProt O75469) | – | – | – | – | IC50 | 16 µM
N[C@@]1(c2ccccc2Cl)CCCCC1=O | – | – | mouse | dose not given, with: 1-ABT and ticlopidine | reference: without CYP inhibitors | Cmax | increased
OCc1ncc2n1-c1ccc(Cl)cc1C(c1ccccc1F)=NC2 | – | – | – | single-compartment model | – | rate constant into compartment | 0 L/h
CNS(=O)(=O)Nc1nccc(Cc2c(C)c3ccc(Oc4ncccn4)cc3oc2=O)c1F | – | – | human patients | oral, once daily | – | maximum tolerated dose | 2.25 mg
CN[C@@H](C)C(=O)c1ccccc1 | – | stimulus generalization | rat trained on S(-)-methcathinone | – | – | ED50 | 0.11 mg/kg
CCCC(=O)n1cc2c3c(cccc31)C1=C[C@@H](C(=O)N(CC)CC)CN(C)[C@@H]1C2 | HTR2B (Homo sapiens, UniProt P41595) | – | – | – | – | Ki | 0.0035 µM
C/C=C1/CN2CC[C@]34C(=C(C(=O)OC)[C@H]1C[C@H]23)Nc1ccccc14 | kappa opioid receptor | radioligand binding | – | with: [3H]CI-977 | – | Ki | 0.2 µM
Nc1ncnc2c1ncn2C1OC(COP(=O)(O)OP(=O)(O)C(F)(F)P(=O)(O)O)C(O)C1O (stereo not drawn) | – | phosphate ionisation | aqueous solution | – | – | pKa4 | 7.1
N#CC(=Cc1ccc(O)cc1)C(=O)O | band 3 anion transport protein (human) | inorganic anion transport, inhibitor | human red blood cells | – | – | Ki | 130 µM
Nc1ncnc2c1ncn2[C@@H]1O[C@H](COP(=O)(O)OP(=O)(O)CP(=O)(O)O)[C@@H](O)[C@H]1O | – | phosphate ionisation | aqueous solution | – | – | pKa4 | 8.4
c1ccc2c(c1)OCC(C1=NCCN1)O2 (stereo not drawn) | imidazoline I2 receptor, brain | radioligand binding | – | – | – | Ki | 0.008 µM

Repeated from above (sample 1):
Molecule | IC50 [µM]
LFNTVAVLY | 20
GFPSLESSF | > 20
RVFDKADGK | > 20
KLYVNGKAY | > 20
